Assay results of several laboratories.
Each numbered part is a random draw from the data of one study; scales do not carry over between parts. Positions count from the first letter of the parent shown.
UniProt Q9ZPY6, sequence (whole entry, looked up): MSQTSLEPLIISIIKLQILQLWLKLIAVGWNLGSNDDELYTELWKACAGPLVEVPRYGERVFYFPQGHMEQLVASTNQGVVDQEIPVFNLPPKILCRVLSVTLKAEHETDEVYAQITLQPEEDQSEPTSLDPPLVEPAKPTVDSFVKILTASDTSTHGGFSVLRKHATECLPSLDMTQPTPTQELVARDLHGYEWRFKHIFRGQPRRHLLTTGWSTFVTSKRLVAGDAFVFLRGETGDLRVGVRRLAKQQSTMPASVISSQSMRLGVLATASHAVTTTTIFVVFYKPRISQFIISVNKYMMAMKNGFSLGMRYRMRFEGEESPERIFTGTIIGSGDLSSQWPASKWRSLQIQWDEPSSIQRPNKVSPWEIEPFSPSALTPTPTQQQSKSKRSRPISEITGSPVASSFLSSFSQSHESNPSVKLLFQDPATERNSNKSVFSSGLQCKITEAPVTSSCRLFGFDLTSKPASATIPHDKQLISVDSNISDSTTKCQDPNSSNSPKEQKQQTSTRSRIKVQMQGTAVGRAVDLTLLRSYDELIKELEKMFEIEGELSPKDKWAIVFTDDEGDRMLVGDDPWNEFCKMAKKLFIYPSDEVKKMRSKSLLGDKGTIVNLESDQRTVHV
UniProt Q9C7I9, sequence (whole entry, looked up): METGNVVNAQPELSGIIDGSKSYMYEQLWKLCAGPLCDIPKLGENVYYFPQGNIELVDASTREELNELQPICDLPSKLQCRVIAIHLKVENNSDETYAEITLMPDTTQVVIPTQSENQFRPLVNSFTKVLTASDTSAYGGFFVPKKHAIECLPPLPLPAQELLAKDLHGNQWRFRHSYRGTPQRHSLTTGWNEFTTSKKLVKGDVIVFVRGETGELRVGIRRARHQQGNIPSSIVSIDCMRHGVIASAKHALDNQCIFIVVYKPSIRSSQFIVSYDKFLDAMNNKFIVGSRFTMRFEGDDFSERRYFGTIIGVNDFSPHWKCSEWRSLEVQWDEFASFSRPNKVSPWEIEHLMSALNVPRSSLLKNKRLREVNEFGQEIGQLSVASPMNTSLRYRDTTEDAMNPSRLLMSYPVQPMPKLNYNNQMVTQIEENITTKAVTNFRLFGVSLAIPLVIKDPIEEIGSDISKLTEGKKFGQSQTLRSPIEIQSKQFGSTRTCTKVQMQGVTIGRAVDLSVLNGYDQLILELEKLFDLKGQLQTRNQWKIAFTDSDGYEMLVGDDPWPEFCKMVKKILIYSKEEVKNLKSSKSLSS
UniProt Q9C5W9, sequence (whole entry, looked up): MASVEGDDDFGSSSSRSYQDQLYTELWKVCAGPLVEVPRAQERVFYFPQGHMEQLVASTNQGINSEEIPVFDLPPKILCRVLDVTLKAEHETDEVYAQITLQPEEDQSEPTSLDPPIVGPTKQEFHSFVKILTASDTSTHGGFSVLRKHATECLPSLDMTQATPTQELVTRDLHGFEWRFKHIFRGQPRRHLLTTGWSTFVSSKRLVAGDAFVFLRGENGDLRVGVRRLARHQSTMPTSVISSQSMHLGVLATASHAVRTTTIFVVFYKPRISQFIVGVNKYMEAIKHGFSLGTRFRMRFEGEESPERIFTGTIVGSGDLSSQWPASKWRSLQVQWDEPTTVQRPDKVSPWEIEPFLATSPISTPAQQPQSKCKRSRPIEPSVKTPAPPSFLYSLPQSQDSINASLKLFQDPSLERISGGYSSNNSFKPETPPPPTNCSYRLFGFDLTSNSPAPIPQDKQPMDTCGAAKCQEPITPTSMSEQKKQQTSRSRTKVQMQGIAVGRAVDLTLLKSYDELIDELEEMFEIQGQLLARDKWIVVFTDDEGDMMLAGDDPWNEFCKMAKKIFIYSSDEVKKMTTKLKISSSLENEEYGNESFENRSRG
UniProt Q93YR9, sequence (whole entry, looked up): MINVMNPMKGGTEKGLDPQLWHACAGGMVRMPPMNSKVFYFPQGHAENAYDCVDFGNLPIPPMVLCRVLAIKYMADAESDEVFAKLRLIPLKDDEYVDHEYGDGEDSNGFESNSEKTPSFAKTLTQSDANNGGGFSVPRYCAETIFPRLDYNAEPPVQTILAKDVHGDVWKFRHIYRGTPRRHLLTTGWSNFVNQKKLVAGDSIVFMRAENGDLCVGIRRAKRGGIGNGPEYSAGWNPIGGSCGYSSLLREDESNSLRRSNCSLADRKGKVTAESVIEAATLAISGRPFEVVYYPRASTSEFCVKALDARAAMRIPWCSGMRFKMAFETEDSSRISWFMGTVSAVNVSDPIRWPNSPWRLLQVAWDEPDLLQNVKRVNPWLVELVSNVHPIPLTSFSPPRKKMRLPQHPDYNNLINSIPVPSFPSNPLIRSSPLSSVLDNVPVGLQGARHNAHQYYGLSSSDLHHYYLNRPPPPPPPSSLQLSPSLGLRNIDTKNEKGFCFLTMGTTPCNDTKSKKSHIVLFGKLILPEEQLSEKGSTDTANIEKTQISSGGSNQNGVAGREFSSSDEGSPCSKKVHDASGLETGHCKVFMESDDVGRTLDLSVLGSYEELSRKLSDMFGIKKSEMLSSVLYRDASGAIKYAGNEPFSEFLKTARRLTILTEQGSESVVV

Sample 1 — technique: universal PBM; molecule type: double-stranded DNA, one strand shown; matrix: in vitro; tested at: 600 nM; direction: higher = stronger binding; measurement: E-score
Target: Sal-like protein 4, full length isoform A (SALL4, Homo sapiens, UniProt Q9UJQ4, residues 1-1053)
UniProt Q9UJQ4, sequence (whole entry, looked up): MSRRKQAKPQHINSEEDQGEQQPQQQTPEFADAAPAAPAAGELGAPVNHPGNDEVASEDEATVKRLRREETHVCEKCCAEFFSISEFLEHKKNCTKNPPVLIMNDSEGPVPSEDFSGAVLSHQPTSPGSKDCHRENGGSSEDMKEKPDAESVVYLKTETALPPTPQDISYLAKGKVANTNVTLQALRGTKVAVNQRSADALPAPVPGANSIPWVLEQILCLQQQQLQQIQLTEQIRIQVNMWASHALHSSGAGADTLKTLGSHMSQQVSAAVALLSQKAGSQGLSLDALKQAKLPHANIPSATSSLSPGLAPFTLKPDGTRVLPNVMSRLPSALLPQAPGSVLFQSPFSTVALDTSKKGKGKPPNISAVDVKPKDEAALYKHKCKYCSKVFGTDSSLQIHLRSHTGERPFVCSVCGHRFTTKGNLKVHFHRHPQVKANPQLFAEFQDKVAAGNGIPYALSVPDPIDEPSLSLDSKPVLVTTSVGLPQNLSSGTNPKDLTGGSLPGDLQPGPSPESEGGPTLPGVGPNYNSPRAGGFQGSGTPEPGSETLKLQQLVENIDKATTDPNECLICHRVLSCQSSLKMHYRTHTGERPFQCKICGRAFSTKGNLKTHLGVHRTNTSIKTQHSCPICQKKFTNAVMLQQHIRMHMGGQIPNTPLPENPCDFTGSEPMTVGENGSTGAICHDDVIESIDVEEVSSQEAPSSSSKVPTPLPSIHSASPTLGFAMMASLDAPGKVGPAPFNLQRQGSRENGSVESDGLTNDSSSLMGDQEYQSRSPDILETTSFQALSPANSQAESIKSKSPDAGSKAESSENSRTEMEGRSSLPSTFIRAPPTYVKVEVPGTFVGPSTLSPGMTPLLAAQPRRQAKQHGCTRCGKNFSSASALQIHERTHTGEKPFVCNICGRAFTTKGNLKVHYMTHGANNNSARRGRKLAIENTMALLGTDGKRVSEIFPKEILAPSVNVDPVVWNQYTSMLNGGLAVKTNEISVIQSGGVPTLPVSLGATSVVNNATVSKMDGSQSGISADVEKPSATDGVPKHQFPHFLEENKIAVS
Notes: 8-mer, flanks averaged, mean of replicates
AATACGAC: 0.128
AAAATCTC: 0.125
TCGCTAAA: 0.0238
GGTAAACA: 0.225
AACCCAGC: -0.218
CAGGAACC: -0.216
AAGCCCAC: -0.21
GTCTTCTA: 0.105

Sample 2 — target: CEP164, C-terminal peptide (human); technique: DHFR complementation, deep sequencing; matrix: yeast; reference: wild type; direction: higher = weaker binding; measurement: binding free energy change
Notes: single substitutions, model-inferred values
Parent: PDZK1, PDZ domain 2 (human); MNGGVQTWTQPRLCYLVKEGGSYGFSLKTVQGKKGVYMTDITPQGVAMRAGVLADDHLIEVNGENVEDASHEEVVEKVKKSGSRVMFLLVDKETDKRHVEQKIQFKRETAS; partner HNRVKVYRF
R49F: 0.535 kcal/mol
K34D: 0.318 kcal/mol
K28S: -0.241 kcal/mol
V75G: 1.17 kcal/mol
F25W: 1.64 kcal/mol
N2V: -0.0866 kcal/mol
L16A: 1.51 kcal/mol
A110S: -0.11 kcal/mol

Sample 3 — Sequence: B1 (ARF9 519-638); technique: two-hybrid; notes: weak activation fusion; direction: higher = firmer interaction; measurement: positive tests
T1: itself; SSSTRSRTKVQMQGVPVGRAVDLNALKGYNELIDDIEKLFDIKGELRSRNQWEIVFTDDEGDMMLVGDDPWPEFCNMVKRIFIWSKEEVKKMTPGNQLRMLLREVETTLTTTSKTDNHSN
B1: ARF9 519-638 (Arabidopsis thaliana, UniProt Q9XED8); chain SSSTRSRTKVQMQGVPVGRAVDLNALKGYNELIDDIEKLFDIKGELRSRNQWEIVFTDDEGDMMLVGDDPWPEFCNMVKRIFIWSKEEVKKMTPGNQLRMLLREVETTLTTTSKTDNHSN
ARF16 570-670 (Arabidopsis thaliana, UniProt Q93YR9); reference: out of 4 tests: 0
ARF18 482-602 (Arabidopsis thaliana, UniProt Q9C5W9); reference: out of 4 tests: 1
T1, itself; reference: out of 4 tests: 1
ARF11 500-622 (Arabidopsis thaliana, UniProt Q9ZPY6); reference: out of 2 tests: 0
ARF20 484-590 (Arabidopsis thaliana, UniProt Q9C7I9); reference: out of 2 tests: 2
ARF12 500-593 (Arabidopsis thaliana, UniProt Q9XID4); reference: out of 4 tests: 0

Sample 4 — target: CCNE2, cyclin fold, Cln2 fusion (human); technique: yeast growth competition, sequencing; matrix: yeast; notes: strong parent motif; reference: not given; direction: higher = stronger binding; measurement: normalised enrichment score; parent: viral docking peptide; YKVKRRLVFGADD
YKVKRSLVFGADD [R6S]: 0.937
YKVKRRNVFGADD [L7N]: 0.673
YKVKRRTVFGADD [L7T]: 0.405
YKVKRRLVFGAMD [D12M]: 5.37
YKVKRALVFGADD [R6A]: 2.56
YKVKFRLVFGADD [R5F]: 0.142
YKVKRRLVFGYDD [A11Y]: 5.25
YKVKRRLIFGADD [V8I]: 5.46
YKVKRRLNFGADD [V8N]: 5.52
YKVKRLLVFGADD [R6L]: 1.03
YKVKRRLVGGADD [F9G]: 0.582
YKVKRRLVFGAND [D12N]: 5.62
YKVKRRLVFGFDD [A11F]: 5.19
YKSKRRLVFGADD [V3S]: 0.8
YKVKRRLVFGAED [D12E]: 5.25
YKVARRLVFGADD [K4A]: 2.98
YKVKRRLVFGAQD [D12Q]: 5.51
YKVKRRLVVGADD [F9V]: 0.784
YVVKRRLVFGADD [K2V]: 4.39
YKVKRRLVSGADD [F9S]: 0.747
YKVKLRLVFGADD [R5L]: 0.0561
YKVKRELVFGADD [R6E]: 0.895
YKVKRRVVFGADD [L7V]: 0.555
YKVNRRLVFGADD [K4N]: 3.69
YKVKRRCVFGADD [L7C]: 0.22

Sample 5 — target: OGT, full length, His-tagged (human); technique: phage display, sequencing; matrix: in vitro; tested at: 1 µg OGT; reference: input library; direction: higher = stronger binding; measurement: fold enrichment; parent: peptide; GDFPVMFMPKYSIIY
Notes: single substitutions, 15-mer displayed peptide, unchanged parent 5.27
I13Y: 1.17 fold
K10D: 1.24 fold
I14Q: 1.96 fold
K10V: 2.21 fold
D2I: 5.53 fold
M6V: 3.36 fold
M6I: 9.75 fold
M6N: 5.39 fold

Excerpt of the above (sample 5):
I14Q: 1.96 fold
D2I: 5.53 fold
M6V: 3.36 fold
M6N: 5.39 fold
K10D: 1.24 fold
M6I: 9.75 fold
I13Y: 1.17 fold
K10V: 2.21 fold
